Measured values pooled from the literature.
Compare with care: the assays were run in different laboratories.
TDP1: Tyrosyl-DNA phosphodiesterase 1 (TDP1, Homo sapiens, UniProt Q9NUW8)
Sequence of UniProt Q9NUW8 (whole entry, looked up): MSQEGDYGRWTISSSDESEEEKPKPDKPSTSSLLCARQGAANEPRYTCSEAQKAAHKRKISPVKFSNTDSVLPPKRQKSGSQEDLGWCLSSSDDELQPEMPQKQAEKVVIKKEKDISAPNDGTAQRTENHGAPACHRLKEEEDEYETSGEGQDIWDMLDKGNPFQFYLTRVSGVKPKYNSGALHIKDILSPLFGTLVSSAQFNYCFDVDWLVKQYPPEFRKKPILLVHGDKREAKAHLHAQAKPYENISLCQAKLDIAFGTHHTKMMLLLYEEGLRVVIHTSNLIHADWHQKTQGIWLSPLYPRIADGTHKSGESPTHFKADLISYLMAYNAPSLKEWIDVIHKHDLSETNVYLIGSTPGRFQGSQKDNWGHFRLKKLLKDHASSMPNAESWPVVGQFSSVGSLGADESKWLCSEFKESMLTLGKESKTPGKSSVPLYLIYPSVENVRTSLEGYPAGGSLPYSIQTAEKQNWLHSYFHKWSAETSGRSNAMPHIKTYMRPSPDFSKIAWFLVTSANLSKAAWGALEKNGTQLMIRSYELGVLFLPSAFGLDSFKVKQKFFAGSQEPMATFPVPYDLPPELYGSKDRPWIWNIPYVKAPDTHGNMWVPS

COc1cccc(F)c1C=NOCc1ccc(-c2nc3cc(-c4ccccc4)ccn3c2Nc2ccc(C(=O)O)cc2)cc1 (mixture of isomers)  inhibition (TDP1; enzyme activity, inhibitor; 100 µM, unpurified compound): 67.4%
CN1CCCNC(=O)c2cccc(c2)C(=O)NCCCN(C)CCCNc2cccc3c2C(=O)c2cccc(c2C3=O)NCCC1  log2 fold change (SAS; RNA-Seq, item: POC1A mRNA; 1 µM, 6 h; relative to: untreated cells): -0.749
O=C(O)c1ccc(Nc2c(-c3ccccc3)nc3ccc(CON=Cc4cnn(Cc5ccccc5Cl)c4)cn23)cc1  inhibition (TDP1; enzyme activity, inhibitor; 100 µM, unpurified compound): 14.6%
C=CC(=O)Nc1cccc(Cn2ncc3cnc(Nc4cnn(CCOC)c4)nc32)c1  percent of control (MAP4K5 human; binding, KINOMEscan; 100 nM; lower = stronger binding): 93%
Cn1ncc2cc(-c3cncc(Cl)c3N3CCC4(CCNC4=O)CC3)ccc21  log2 fold change (LS174T; gene expression, microarray, item: PPFIA4 mRNA; concentration not given, 24 h; relative to: untreated cells): 4.63
Cc1ncsc1-c1ccc(C(C)NC(=O)C2CC(O)CN2C(=O)C(NC(=O)CCCCCCCCCCN2CCCC(Nc3ncc(Cl)c(Nc4ccccc4S(=O)(=O)C(C)C)n3)C2)C(C)(C)C)cc1 (stereo not shown)  log2 fold change (22Rv1; RNA-seq, item: MTHFSD mRNA; concentration not given; relative to: DMSO): -1.97
Nc1ncc(-c2cc(-c3cnn(CC(F)(F)F)c3)ncc2F)nc1C(=O)NC1CNCC(F)C1 (stereo not shown)  remaining binding (MST3; KINOMEscan; 1 µM; relative to: DMSO control): 74%
COC1CN([C@H]2CC[C@H]([C@@]3(C)Oc4c(Cl)cc(C(=O)NCc5c(SC)cc(C)[nH]c5=O)c(C)c4O3)CC2)C1  log2 fold change (RNA-seq, item: PKIB mouse homolog; mouse, HT-1376 xenograft, whole blood; dose not given; relative to: vehicle): 0.835
C=CC(=O)N1[C@H](c2ccc3c(c2)OCO3)c2[nH]c3ccccc3c2C[C@@H]1C(=O)N1CCN(C)CC1  relative co-enrichment (human cyclin E1 N112C-3xFLAG:CDK2; co-IP with TMT proteomics, item: DHX9; concentration not given, Q08211; relative to: wild type DMSO): 125%
CNS(=O)(=O)Nc1nccc(Cc2c(C)c3ccc(Oc4ncccc4F)cc3oc2=O)c1F  IC50 (NCI-H2023; cell viability; 7 days): > 1000 nM

Some of these lines once more:
Cc1ncsc1-c1ccc(C(C)NC(=O)C2CC(O)CN2C(=O)C(NC(=O)CCCCCCCCCCN2CCCC(Nc3ncc(Cl)c(Nc4ccccc4S(=O)(=O)C(C)C)n3)C2)C(C)(C)C)cc1 (stereo not shown)  log2 fold change (22Rv1; RNA-seq, item: MTHFSD mRNA; concentration not given; relative to: DMSO): -1.97
